Measured values gathered from unrelated publications.
Numbered parts are unrelated; each lists some results of a single study. Positions count from the first letter of the parent shown.

Study 1 — technique: RNA Bind-n-Seq; form: RNA; medium: in vitro; tested at: 365 nM; baseline: no-protein control; reading: higher = stronger binding
Target: RNA binding protein fox-1 homolog 2, RRM domain, GST-SBP tag (RBFOX2, Homo sapiens, UniProt O43251-10, residues 100-194)
Setting: natural RNA segment, single round, ends assumed
Target sequence (chain): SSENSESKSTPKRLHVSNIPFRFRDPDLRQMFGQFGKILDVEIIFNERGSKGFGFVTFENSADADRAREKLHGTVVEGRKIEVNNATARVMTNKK
For `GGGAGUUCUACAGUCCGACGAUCUAUAAUGCUUUAUACUUUGCCAGGAAGAAGUAUAGCUAUAGUUGAGGUGUACCUAAGAAAUUAGCAAGAAUGGAUCUGCGUCUCAGCUCAGCAGAACUAUAGCCAAUGUUUGGAAUUCUCGGGUGCCAA`, “RBNS enrichment (R)” read 3.43.
`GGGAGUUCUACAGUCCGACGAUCUGGGCCUGCUGUCUGCGCCUUUCGUAGUGACAGAUGUGGCUGUAGUGUUUAGGUGUUUGGUCUUGCUUCUUGUAUGGCAUUUUUCAAUAAACUUUAAAAAAAAAAAAAAAUGGAAUUCUCGGGUGCCAA`: “RBNS enrichment (R)” 1.44.
`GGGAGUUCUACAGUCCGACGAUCAAUCCAGCAUAUUUAAGAGGUAAUCCUGUGUUUUCUGCAACAUUGAGGCAUUCAUACAGAGCUGCAGUUAGGCAGAGUUGCGGGGCUAGAAGCAGAAGCAGACAUCCCAUUGGAAUUCUCGGGUGCCAA` — result for “RBNS enrichment (R)”: 0.645.
`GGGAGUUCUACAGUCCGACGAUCUGACUGAGAAUAGUGACAUGUCUGUCUUGUGACCAGAUAUGAGUGUGCAUAAGGUCCUGUCUAGCCGAGACUGACUGGGGGGGACUGUAUAGGAGACUGACGGGGAGCAGUGGAAUUCUCGGGUGCCAA`: “RBNS enrichment (R)” 0.545.
Under “RBNS enrichment (R)”, `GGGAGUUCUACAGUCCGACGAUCGGAUGCGGCUUGGGACUCAGACCUCAUCAUAUUGAUGAGUAGAAAGAACGUUCCCCCGCCCUCCUCCGAUCGAAAUGGCACAUUGACACUUGUCACAGCUUCGUGGUGACUGGAAUUCUCGGGUGCCAA` is recorded as 0.255.
`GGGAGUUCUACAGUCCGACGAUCACCUCAUAAUUCUCACACAUGGCAUUUCUAAUGACAGGCAGGCCCUCUUCCAUGGUGCCGGCCAGAUUUGGGGACGGAGCACCAUUGUCCCUGUGGGGCUCAAUGUGGUGUGGAAUUCUCGGGUGCCAA`: “RBNS enrichment (R)” 0.221.
`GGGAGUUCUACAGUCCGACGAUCAGAGGUGGGGUCACCCAAGCUGAGUGCCAUCUUUUCCUGAAUGUCAGAUCUGCAGCCUCGGGGACUCCCAGGUACACAGCAUCCUACUGUAACCUUGGAAGCUGACCAAAUGGAAUUCUCGGGUGCCAA` — result for “RBNS enrichment (R)”: 0.232.
`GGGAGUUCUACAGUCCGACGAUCUGGGACCAGGCCCCGGAUCCUCACGGGCAACCCUCGAGUAGACCUUCAGGAGAUUAACAACUGGGUGCAGGCCCAGAUGAAAGGGAAGAUUGCCCGGUCCACGAGGGAAAUGGAAUUCUCGGGUGCCAA` — result for “RBNS enrichment (R)”: 0.55.

Study 2 — technique: protein-binding microarray; form: double-stranded DNA, one strand shown; medium: in vitro; tested at: 250 nM; setting: 60-bp whole probe; with: salmon DNA 0.4 mg/ml; baseline: random background probes; reading: higher = stronger binding; shared flanks, not repeated: GCCTAGCAC … GTCTTGATTCGCTTGACGCTGCTG
Target: Interferon regulatory factor 7, full length, phosphomimetic (IRF7, Homo sapiens, UniProt Q92985, residues 1-503, S101K/S471D/S472D/S475D/S476D/S477D/S483D/S484D/S487D)
Construct (chain): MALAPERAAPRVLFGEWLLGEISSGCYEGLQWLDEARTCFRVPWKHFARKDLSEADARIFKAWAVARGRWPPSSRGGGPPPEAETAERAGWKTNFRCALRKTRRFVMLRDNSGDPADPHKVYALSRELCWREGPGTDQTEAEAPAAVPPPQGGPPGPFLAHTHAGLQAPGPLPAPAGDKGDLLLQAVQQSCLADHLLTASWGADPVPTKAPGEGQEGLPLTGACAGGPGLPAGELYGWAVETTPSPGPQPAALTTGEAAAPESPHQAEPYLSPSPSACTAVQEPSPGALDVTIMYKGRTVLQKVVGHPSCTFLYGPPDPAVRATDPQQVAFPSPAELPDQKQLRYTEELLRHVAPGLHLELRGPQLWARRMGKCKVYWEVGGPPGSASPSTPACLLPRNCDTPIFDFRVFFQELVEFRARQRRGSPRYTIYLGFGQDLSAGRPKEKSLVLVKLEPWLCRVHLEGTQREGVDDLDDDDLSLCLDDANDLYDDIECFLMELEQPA
With `GACGGACTAGGGTATCGGGACGTGCTA` the log fluorescence was 0.0396 z-score.
With `GTAGGTTTCCTTTTCCTTTAGTGCTAG` the log fluorescence was 6.65 z-score.
For `TTAGGTATCTGTCTCGGTTAGTGCTAG`, the log fluorescence was 0.639 z-score.
For `TTAGGAATGGGGTATCGGTTAGTGCTA`, the log fluorescence was 0.27 z-score.
`GACGGTTTCGGGTATCGGGACGTGCTA` gave a log fluorescence of 7.28 z-score.
With `TTAGGCATCCTACTGCTTTAGTGCTAG` the log fluorescence was -0.53 z-score.
`GACGGTATCCTTCGCCTGACGTGCTAG` has a log fluorescence of -0.324 z-score.
With `TTAGATACCAGTCTCGATTAGTGCTAG` the log fluorescence was 1.81 z-score.

Single results of other studies
P1: viral docking peptide; KGVKRKLFAEDSS; partner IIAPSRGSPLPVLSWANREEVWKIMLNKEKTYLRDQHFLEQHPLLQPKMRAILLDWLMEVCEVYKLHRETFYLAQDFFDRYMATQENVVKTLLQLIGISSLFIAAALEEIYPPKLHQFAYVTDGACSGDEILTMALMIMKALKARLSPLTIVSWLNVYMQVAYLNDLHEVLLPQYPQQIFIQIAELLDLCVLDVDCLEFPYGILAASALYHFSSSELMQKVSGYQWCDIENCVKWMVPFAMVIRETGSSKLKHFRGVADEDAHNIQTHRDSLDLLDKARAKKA
`ETFA (Homo sapiens, UniProt P13804)`: cross-linked residues “K301 to K767” (ARID5B (Homo sapiens, UniProt Q14865); cross-linking MS; cells; with: BSPNO).
`P1 K4V`: “normalised enrichment score” 7.24 (CCNE1, cyclin fold, Cln2 fusion (human); yeast growth competition, sequencing; yeast; strong parent motif; baseline: not given, higher = stronger binding).
